# Published values of several laboratories.
# Compare with care: the assays were run in different laboratories. Numbers after ± are the reported error.
SMILES,organism,assay,system,setting,how to read,endpoint,value
Cc1cc(CCC(=O)OCC(C)(C)C2OCC3(CO2)COC(C(C)(C)COC(=O)CCc2cc(C)c(O)c(C(C)(C)C)c2)OC3)cc(C(C)(C)C)c1O (stereo not shown),Cyprinus carpio,everted gut sac,intestine,"concentration not given, 24 h, 23 °C",,concentration in serosal solution,< 100 ng/mL
CC[C@H](C)[C@@H]1NC(=O)[C@H](CCCNC(=N)N)NC(=O)[C@H](CC(=O)O)NC(=O)[C@H](CC(C)C)NC(=O)[C@H](CCCCN)NC(=O)[C@H](CC(C)C)NC(=O)CNC(=O)[C@H](Cc2ccccc2)NC(=O)[C@@H](NC(=O)CNC(=O)[C@H](CCCCN)NC(=O)[C@H](CO)NC(=O)[C@H](CC(C)C)NC(=O)CN)CSSC[C@@H](C(=O)O)NC(=O)CNC(=O)[C@H](CC(C)C)NC(=O)CNC(=O)[C@H](CO)NC(=O)[C@H](CCSC)NC(=O)[C@H](CO)NC(=O)CNC1=O,Pseudomonas aeruginosa,LDH release,"A549, PA14 wild type",concentration not given,baseline: PA14 without compound,increase in cytotoxicity,76.6 ± 17%
OC1(C(F)(F)F)CCN(c2nc(Nc3ccnc(C(F)(F)F)c3)nc(-c3cccc(C(F)(F)F)n3)n2)C1 (stereo not shown),"Salmonella typhimurium, Escherichia coli",,"TA98, TA100, TA1535, TA1537, WP2uvrA","up to 50 µg/plate, with and without S9",,cytotoxicity,not toxic
Nc1ccccc1C(=O)NS(=O)(=O)OC[C@H]1O[C@@H](n2cnc3c(N)ncnc32)[C@H](O)[C@@H]1O,Pseudomonas aeruginosa,LC-MS/MS of lysate,"PA14, LB medium","1000 µM, 30 min",baseline: extracellular concentration,accumulation,2 to 3%
O=C1C=C(Br)/C(=C/Br)O1,Pseudomonas aeruginosa,OD600,,reporter strain,,toxic concentration,≥ 100 µM
COc1ccc(C(=O)N(O)Cc2ccccc2)cc1,Arabidopsis thaliana,,agar,100 µM,,growth,toxic
C=CC(=O)Oc1c(C(C)c2cc(C(C)(C)CC)cc(C(C)(C)CC)c2O)cc(C(C)(C)CC)cc1C(C)(C)CC (stereo not shown),Cyprinus carpio,everted gut sac,intestine,"concentration not given, 24 h, 23 °C",,concentration in serosal solution,< 60 ng/mL
COc1ccc(C(=O)N(O)Cc2ccc(F)cc2)cc1,Arabidopsis thaliana,,agar,100 µM,,growth,toxic
Cc1c(Cc2cc(C(C)(C)C)c(O)c(C(C)(C)C)c2)c(C)c(Cc2cc(C(C)(C)C)c(O)c(C(C)(C)C)c2)c(C)c1Cc1cc(C(C)(C)C)c(O)c(C(C)(C)C)c1,Cyprinus carpio,everted gut sac,intestine,"concentration not given, 24 h, 23 °C",,concentration in serosal solution,< 80 ng/mL
Nc1ccccc1C(=O)NS(=O)(=O)NC[C@H]1O[C@@H](n2cnc3c(N)ncnc32)[C@H](O)[C@@H]1O,Pseudomonas aeruginosa,LC-MS/MS of lysate,"PA14, LB medium","1000 µM, 30 min",baseline: extracellular concentration,accumulation,2 to 3%

# Excerpt of the above:
SMILES,organism,assay,system,setting,how to read,endpoint,value
COc1ccc(C(=O)N(O)Cc2ccccc2)cc1,Arabidopsis thaliana,,agar,100 µM,,growth,toxic
